# Assay results of several laboratories.
# Every numbered part comes from another study and shows a few of its results, in no order. Positions count from the first letter of the parent shown.
# UniProt P42336, sequence (whole entry, unmodified, looked up): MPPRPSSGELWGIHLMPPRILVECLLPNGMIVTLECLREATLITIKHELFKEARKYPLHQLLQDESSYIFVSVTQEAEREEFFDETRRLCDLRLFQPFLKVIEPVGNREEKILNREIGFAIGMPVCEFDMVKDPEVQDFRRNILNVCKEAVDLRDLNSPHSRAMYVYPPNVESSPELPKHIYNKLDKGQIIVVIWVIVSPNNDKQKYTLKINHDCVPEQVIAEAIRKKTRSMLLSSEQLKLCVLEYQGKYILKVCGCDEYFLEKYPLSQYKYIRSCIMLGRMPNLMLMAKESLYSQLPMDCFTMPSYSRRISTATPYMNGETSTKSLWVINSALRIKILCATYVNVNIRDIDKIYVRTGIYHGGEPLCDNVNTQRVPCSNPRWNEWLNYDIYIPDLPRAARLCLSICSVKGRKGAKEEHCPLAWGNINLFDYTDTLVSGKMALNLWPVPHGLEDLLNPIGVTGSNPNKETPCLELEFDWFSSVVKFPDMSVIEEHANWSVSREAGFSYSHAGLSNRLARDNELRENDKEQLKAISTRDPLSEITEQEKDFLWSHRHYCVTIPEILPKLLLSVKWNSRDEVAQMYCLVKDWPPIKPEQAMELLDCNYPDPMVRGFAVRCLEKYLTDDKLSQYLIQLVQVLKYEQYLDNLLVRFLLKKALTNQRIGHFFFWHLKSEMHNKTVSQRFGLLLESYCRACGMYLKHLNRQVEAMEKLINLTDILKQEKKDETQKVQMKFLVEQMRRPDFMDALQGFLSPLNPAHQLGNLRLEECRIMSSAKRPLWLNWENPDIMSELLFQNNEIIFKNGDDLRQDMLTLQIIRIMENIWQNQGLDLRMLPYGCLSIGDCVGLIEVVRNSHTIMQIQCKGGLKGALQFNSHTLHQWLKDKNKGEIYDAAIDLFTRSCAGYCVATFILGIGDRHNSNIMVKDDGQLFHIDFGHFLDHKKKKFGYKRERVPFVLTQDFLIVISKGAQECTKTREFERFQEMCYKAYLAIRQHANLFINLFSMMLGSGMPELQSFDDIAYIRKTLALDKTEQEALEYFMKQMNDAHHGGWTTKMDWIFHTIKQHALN
# UniProt O43353, sequence (whole entry, looked up): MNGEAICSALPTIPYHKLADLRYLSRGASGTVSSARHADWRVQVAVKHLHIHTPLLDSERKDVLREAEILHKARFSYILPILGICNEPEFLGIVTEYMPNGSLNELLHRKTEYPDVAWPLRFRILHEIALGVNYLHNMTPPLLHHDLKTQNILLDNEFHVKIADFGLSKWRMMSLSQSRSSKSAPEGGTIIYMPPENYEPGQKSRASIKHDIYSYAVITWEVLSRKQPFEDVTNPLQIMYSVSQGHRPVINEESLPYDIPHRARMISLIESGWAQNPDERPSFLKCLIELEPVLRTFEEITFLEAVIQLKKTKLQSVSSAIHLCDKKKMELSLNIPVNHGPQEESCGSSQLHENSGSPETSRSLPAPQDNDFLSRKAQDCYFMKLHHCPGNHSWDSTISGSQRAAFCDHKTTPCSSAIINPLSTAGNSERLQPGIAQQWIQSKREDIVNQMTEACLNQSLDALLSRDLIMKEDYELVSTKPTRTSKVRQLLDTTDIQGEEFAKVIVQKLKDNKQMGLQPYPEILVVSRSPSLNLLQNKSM
# UniProt Q9BYT3, sequence (whole entry, looked up): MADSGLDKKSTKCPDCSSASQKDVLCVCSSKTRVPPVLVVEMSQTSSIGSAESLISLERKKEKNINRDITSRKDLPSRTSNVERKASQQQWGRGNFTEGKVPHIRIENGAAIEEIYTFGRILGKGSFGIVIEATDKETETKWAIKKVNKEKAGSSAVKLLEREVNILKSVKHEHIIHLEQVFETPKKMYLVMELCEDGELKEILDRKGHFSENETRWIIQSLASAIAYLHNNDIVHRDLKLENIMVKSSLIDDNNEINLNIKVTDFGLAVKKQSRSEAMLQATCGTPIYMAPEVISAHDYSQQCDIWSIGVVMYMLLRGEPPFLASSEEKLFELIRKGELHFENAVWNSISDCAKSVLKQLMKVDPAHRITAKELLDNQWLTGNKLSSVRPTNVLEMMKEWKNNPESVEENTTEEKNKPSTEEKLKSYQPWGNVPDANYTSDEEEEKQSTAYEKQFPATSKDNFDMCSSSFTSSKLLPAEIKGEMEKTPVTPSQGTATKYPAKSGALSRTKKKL
# UniProt Q16832, sequence (whole entry, looked up): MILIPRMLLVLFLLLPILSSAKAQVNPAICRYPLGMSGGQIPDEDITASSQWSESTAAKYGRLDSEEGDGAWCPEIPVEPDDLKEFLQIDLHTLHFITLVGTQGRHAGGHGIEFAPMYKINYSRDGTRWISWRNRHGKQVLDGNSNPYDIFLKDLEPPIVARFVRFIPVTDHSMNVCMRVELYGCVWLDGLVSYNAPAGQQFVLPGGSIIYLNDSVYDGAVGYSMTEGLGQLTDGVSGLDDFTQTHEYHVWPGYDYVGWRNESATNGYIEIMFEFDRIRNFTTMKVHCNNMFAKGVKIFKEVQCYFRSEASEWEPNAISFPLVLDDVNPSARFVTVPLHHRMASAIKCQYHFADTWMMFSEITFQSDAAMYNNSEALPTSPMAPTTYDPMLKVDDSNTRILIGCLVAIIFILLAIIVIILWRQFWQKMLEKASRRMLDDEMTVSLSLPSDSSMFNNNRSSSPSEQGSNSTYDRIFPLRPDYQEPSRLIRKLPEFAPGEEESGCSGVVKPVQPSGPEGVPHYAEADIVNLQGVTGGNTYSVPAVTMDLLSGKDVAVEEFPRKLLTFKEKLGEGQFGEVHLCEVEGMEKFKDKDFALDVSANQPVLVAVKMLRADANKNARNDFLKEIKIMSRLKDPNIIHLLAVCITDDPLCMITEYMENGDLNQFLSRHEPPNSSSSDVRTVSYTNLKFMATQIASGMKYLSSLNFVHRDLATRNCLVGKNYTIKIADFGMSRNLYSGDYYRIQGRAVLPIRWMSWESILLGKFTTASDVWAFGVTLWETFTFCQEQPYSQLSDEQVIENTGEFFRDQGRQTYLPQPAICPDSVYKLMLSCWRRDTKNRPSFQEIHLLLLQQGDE
# UniProt Q96BR1, sequence (whole entry, looked up): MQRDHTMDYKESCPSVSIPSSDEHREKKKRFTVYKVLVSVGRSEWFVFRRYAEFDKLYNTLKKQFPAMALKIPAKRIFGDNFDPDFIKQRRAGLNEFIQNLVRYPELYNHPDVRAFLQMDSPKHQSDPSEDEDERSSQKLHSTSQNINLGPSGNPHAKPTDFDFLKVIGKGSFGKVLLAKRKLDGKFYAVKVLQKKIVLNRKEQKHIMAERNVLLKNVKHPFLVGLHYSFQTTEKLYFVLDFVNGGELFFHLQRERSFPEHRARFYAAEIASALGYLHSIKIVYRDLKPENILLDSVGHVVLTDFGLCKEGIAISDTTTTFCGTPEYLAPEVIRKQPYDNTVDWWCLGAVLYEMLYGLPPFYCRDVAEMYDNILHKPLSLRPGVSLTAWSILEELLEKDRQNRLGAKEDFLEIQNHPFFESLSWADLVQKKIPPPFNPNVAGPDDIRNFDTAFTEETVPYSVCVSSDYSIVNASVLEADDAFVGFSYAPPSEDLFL
# UniProt Q96L34, sequence (whole entry, looked up): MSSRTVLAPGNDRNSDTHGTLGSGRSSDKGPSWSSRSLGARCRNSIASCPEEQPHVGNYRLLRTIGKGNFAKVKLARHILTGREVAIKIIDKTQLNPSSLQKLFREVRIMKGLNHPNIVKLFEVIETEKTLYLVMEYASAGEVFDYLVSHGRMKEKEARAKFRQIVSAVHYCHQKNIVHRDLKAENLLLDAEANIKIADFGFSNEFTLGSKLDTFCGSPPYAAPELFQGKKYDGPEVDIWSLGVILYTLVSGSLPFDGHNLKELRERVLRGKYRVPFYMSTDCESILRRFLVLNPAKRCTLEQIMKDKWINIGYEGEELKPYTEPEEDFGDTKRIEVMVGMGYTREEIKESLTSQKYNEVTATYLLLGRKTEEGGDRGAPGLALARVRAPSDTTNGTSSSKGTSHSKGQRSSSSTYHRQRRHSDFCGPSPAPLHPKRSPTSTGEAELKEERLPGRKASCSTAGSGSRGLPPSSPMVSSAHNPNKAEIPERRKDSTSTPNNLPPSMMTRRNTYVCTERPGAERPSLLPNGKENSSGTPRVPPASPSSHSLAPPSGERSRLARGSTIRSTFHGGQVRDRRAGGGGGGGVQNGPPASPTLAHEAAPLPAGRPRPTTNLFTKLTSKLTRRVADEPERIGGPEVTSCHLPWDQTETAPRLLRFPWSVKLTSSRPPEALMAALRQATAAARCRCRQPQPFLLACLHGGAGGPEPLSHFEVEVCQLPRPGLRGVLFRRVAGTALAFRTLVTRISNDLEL
# UniProt P49760, sequence (whole entry, looked up): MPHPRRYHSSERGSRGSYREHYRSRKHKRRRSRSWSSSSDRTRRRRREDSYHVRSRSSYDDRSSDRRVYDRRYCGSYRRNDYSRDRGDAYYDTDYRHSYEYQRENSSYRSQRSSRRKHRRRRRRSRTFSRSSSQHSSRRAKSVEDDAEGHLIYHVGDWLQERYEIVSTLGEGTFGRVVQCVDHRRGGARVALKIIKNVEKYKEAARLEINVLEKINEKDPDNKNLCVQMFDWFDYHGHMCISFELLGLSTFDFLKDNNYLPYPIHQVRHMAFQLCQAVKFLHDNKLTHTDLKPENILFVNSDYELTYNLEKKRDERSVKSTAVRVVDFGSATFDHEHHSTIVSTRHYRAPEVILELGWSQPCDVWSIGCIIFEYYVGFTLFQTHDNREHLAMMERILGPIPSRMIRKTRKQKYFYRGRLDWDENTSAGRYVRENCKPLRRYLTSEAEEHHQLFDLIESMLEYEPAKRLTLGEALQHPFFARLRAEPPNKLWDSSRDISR

# Set 1
# Structure (SMILES): O=C(Nc1cccc(Nc2nccc(Nc3cccc(C(F)(F)F)c3)n2)c1)C1CC1
# Read-out: enzyme activity
# Mode: inhibitor
# Concentration: 0.5 µM
# Relative to: control
target,remaining activity [%]
"Serine/threonine-protein kinase DCLK2 (DCLK2, Homo sapiens, UniProt Q8N568)",97.4
"Hepatocyte growth factor receptor (MET, Homo sapiens, UniProt P08581)",87.7
"Serine/threonine-protein kinase MARK2 (MARK2, Homo sapiens, UniProt Q7KZI7)",97
"Serine/threonine-protein kinase Nek3 (NEK3, Homo sapiens, UniProt P51956)",95.8
"Serine/threonine-protein kinase PAK 3 (PAK3, Homo sapiens, UniProt O75914)",98.9
"Calcium/calmodulin-dependent protein kinase type 1B (PNCK, Homo sapiens, UniProt Q6P2M8)",106
"MAP/microtubule affinity-regulating kinase 4 (MARK4, Homo sapiens, UniProt Q96L34)",108
"RAC-beta serine/threonine-protein kinase (AKT2, Homo sapiens, UniProt P31751)",107
"Mitogen-activated protein kinase 11 (MAPK11, Homo sapiens, UniProt Q15759)",103
"Vascular endothelial growth factor receptor 2 (KDR, Homo sapiens, UniProt P35968)",91.6
"Discoidin domain-containing receptor 2 (DDR2, Homo sapiens, UniProt Q16832)",81.7
"Dual specificity mitogen-activated protein kinase kinase 1 (MAP2K1, Homo sapiens, UniProt Q02750)",98
"Mitogen-activated protein kinase 1 (MAPK1, Homo sapiens, UniProt P28482)",89

# Set 2
# SMILES: O=C(N1CCS(=O)(=O)CC1)N1C[C@H](c2ccc(OC(F)(F)F)cc2)C[C@H](c2nc(C3CC3)no2)C1
# Technique: competition with immobilised ligand
# Concentration: 1 µM
target,test,remaining binding [%]
"Mitogen-activated protein kinase kinase kinase 5 (MAP3K5, Homo sapiens, UniProt Q99683)",cell-free assay,100
"Mitogen-activated protein kinase kinase kinase 15 (MAP3K15, Homo sapiens, UniProt Q6ZN16)",cell-free assay,100
"Vascular endothelial growth factor receptor 3 (FLT4, Homo sapiens, UniProt P35916)",cell-free assay,100
"Ribosomal protein S6 kinase beta-1 (RPS6KB1, Homo sapiens, UniProt P23443)",cell-free assay,100
"Receptor-interacting serine/threonine-protein kinase 2 (RIPK2, Homo sapiens, UniProt O43353)",cell-free assay,90
"Tyrosine-protein kinase CSK (CSK, Homo sapiens, UniProt P41240)",cell-free assay,100
"Activin receptor type-1-like (ACVRL1, Homo sapiens, UniProt P37023)",binding,100
"Dual specificity protein kinase CLK2 (CLK2, Homo sapiens, UniProt P49760)",cell-free assay,100
"Mitogen-activated protein kinase kinase kinase 2 (MAP3K2, Homo sapiens, UniProt Q9Y2U5)",cell-free assay,100
"Phosphatidylinositol 4,5-bisphosphate 3-kinase catalytic subunit alpha isoform (PIK3CA, Homo sapiens, UniProt P42336, I800L)",cell-free assay,68
"Phosphatidylinositol 4,5-bisphosphate 3-kinase catalytic subunit alpha isoform (PIK3CA, Homo sapiens, UniProt P42336, C420R)",cell-free assay,100
"Serine/threonine-protein kinase 33 (STK33, Homo sapiens, UniProt Q9BYT3)",cell-free assay,99
"Atypical kinase COQ8A, mitochondrial (COQ8A, Homo sapiens, UniProt Q8NI60)",cell-free assay,100
"Serine/threonine-protein kinase Sgk3 (SGK3, Homo sapiens, UniProt Q96BR1)",cell-free assay,100
"Serine/threonine-protein kinase N2 (PKN2, Homo sapiens, UniProt Q16513)",cell-free assay,100

# Set 3
# Target: NFE2, bZIP domain (human)
# Technique: DHFR protein complementation
# Matrix: yeast
# Notes: single substitutions, most at no-binding floor
# Relative to: wild-type JUN-FOS pair
# Reading: higher = stronger binding
# Parent: JUN, bZIP domain (human); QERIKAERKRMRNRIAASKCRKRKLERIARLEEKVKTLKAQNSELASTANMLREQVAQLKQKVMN; partner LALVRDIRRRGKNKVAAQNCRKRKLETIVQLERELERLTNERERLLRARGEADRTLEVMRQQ
Variant,binding fitness [natural log]
V35T,-1.42
K34G,-1.54
L45Q,-1.54
K34N,-1.5
A46I,-1.39
M51V,-1.51
T37V,-1.53
S43Q,-1.47

# Set 4
# Target: CCND1, cyclin fold, Cln2 fusion (human)
# Technique: yeast growth competition, sequencing
# Matrix: yeast
# Notes: weak parent motif
# Relative to: not given
# Reading: higher = stronger binding
# Parent: WEE1 docking peptide (human); HKTFRKLRLFDTP
Variant,normalised enrichment score
HKTFRKLRLFWTP [D11W],0.183
HKTFRKLRLFDMP [T12M],0.481
HKTFRKLRLFFTP [D11F],0.585
HKTFRKLRLEDTP [F10E],-0.424
HKTHRKLRLFDTP [F4H],0.27
HKTFRKLRLSDTP [F10S],-0.647
HKTFRKLRLFNTP [D11N],-0.202
HKTFRPLRLFDTP [K6P],0.598

# Excerpt of the above (set 3):
Variant,binding fitness [natural log]
V35T,-1.42
K34G,-1.54
L45Q,-1.54
K34N,-1.5
A46I,-1.39
